Assay results gathered from unrelated publications.
Numbers after ± are the reported error.

Compound = CC(=O)[O-].CN(C)C=O.F[P-](F)(F)(F)(F)F.[Co+2].c1ccc(CN2CCN3CCCN(CC2)CCN(Cc2ccccc2)CC3)cc1; organism = Leishmania donovani; test = parasite growth, resazurin; conditions = 72 h, promastigote; IC50 = 20.7 µM
Compound = CC(C)[C@H](NC(=O)[C@H](CCCNC(=N)N)NC(=O)[C@H](Cc1ccc2ccccc2c1)NC(=O)[C@H](CCCNC(=N)N)NC(=O)[C@@H](N)CS)C(=O)N1CCC[C@@H]1C(=O)N[C@@H](CC1CCCCC1)C(=O)N[C@@H](Cc1c[nH]cn1)C(=O)N[C@@H](CCCNC(=N)N)C(=O)N[C@@H](Cc1ccc(O)cc1)C(=O)N[C@@H](CCCNC(=N)N)C(=O)N[C@@H](CS)C(N)=O; organism = hepatitis C virus; test = viral replication, Renilla luciferase reporter; system = Huh7.5; conditions = 48 h; IC50 = 0.003 µM
Compound = O=C(C1CCN(c2nnnn2-c2ccccc2)CC1)N1CCCc2ccccc21; organism = Plasmodium falciparum; test = [3H]hypoxanthine incorporation; system = Dd2; conditions = 72 h; IC50 = 0.9 µM
Compound = CC[C@H](C)[C@H](NC(=O)CNC(=O)[C@H](CO)NC(=O)[C@H](CC(C)C)NC(=O)[C@@H](N)Cc1ccccc1)C(=O)N[C@H](C(=O)NCC(=O)N[C@@H](CCSC)C(=O)N[C@@H](CC(C)C)C(=O)NCC(=O)N[C@@H](CCCCN)C(=O)N[C@@H](CC(C)C)C(=O)N[C@@H](Cc1ccccc1)C(N)=O)C(C)C; organism = Leishmania amazonensis; test = parasite growth; conditions = 72 h, promastigote; IC50 = 8 µM
Compound = COc1cc2c(=O)c(C(=O)NCCNCCO)cn(Cc3ccccc3)c2cc1OCc1cccc(Cl)c1; organism = Leishmania donovani; system = Bob promastigotes; conditions = 120 h; IC50 = > 20 µM
Compound = CC=C1NC(=O)[C@H](Cc2ccccc2)NC(=O)[C@H](C(C)C)NC(=O)[C@H](Cc2ccncc2)NC(=O)[C@H](CCC(N)=O)NC(=O)[C@H](Cc2c[nH]c3ccccc23)NC(=O)C2CSC[C@@H](C(=O)N[C@@H](CO)C(=O)O)NC(=O)[C@H](CSCC3NC(=O)[C@H]([C@@H](C)CC)NC(=O)C(NC(=O)[C@H](Cc4c[nH]cn4)NC(=O)[C@@H](NC(=O)[C@@H](NC(=O)CNC(=O)[C@H](CO)NC(=O)CNC(=O)CNC(=O)[C@@H](N)CCCCN)C(C)C)[C@@H](C)CC)C(C)SC[C@H](NC(=O)[C@H](CCC(=O)O)NC(=O)[C@H](Cc4c[nH]cn4)NC3=O)C(=O)N[C@@H](CCCNC(=N)N)C(=O)N[C@@H](CCSC)C(=O)N[C@@H](CC(N)=O)C(=O)N2)NC1=O (stereo partly shown); organism = Lactococcus lactis; test = cell growth; system = HP; IC50 = 0.213 ± 0.009 µM
Compound = Cc1cccc2c1NC(=O)C2=Cc1ccc(-c2cccc(C(=O)N3CCCN(C)CC3)c2)o1 (mixture of isomers); organism = Ancylostoma ceylanicum; test = motility; system = adult worms; conditions = 24 h; IC50 = 7.7 µM
Compound = CC1N=C(CCCCCCCCCCC2=CC(CCCCCCCCCCC3=NC(C)C(O)CC3)C3CCCN3C2)CCC1O (stereo not shown); organism = Leishmania donovani; system = amastigotes in THP-1 macrophages; IC50 = 1.67 ± 0.23 mg/L
Compound = F[P-](F)(F)(F)(F)F.F[P-](F)(F)(F)(F)F.[Cu+2].c1ccc(CN2CCCNCCN(Cc3ccccc3)CCCNCC2)cc1; organism = Leishmania donovani; system = THP-1-derived macrophages, intracellular amastigotes; IC50 = > 15 µM
Compound = CC(=O)Nc1cc(Nc2cc(NC3CC3)n3ncc(C#N)c3n2)ccc1N(C)Cc1ccccc1; organism = murine coronavirus (MHV-nLuc); test = viral replication, nanoluciferase reporter; system = DBT; IC50 = > 1 µM
Compound = CC(C)(C)SC[C@@H]1NC(=O)[C@H](CCCNC(=N)N)NC(=O)[C@H](Cc2ccccc2)NC(=O)[C@H](CCCNC(=N)N)NC(=O)[C@@H](NC(=O)[C@@H](N)CCCNC(=N)N)CSSC[C@@H](C(=O)N[C@@H](CCCNC(=N)N)C(N)=O)NC(=O)[C@H](CCCNC(=N)N)NC(=O)[C@H](Cc2ccc(O)cc2)NC(=O)[C@H](CCCNC(=N)N)NC(=O)[C@H](Cc2c[nH]cn2)NC(=O)[C@H](CC2CCCCC2)NC(=O)[C@H]2CCCN2C1=O; organism = hepatitis C virus; test = viral replication, Renilla luciferase reporter; system = Huh7.5; conditions = 48 h; IC50 = 0.000234 µM
Compound = CC#N.[Cl][Mn-2]([Cl])([Cl])[Cl].[Mn+2].c1ccc(CN2CCCN3CCCN(CCCN(Cc4ccccc4)CC3)CC2)cc1; organism = Leishmania donovani; test = parasite growth, resazurin; conditions = 72 h, promastigote; IC50 = 3.48 µM
Compound = CC(C)(C)CC(C)(C)Nc1c(-c2ccc3c(c2)OCO3)nc2ccccn12; organism = Leishmania amazonensis; test = fluorimetry; system = peritoneal macrophages, RFP; conditions = 72 h, intracellular amastigotes; IC50 = > 100 µM
Compound = CC(C)C[C@H](NC(=O)[C@H](Cc1c[nH]cn1)NC(=O)[C@H](Cc1ccc(O)cc1)NC(=O)[C@H](CCCNC(=N)N)NC(=O)[C@H](Cc1ccc(O)cc1)NC(=O)[C@H](CCCCN)NC(=O)[C@@H](N)CCCCN)C(=O)N[C@@H](CCCCN)C(=O)N1CCC[C@H]1C(=O)N[C@@H](Cc1ccccc1)C(=O)NCCCC[C@H](NC(=O)[C@H](Cc1ccccc1)NC(=O)[C@@H]1CCCN1C(=O)[C@H](CCCCN)NC(=O)[C@H](CC(C)C)NC(=O)[C@H](Cc1c[nH]cn1)NC(=O)[C@H](Cc1ccc(O)cc1)NC(=O)[C@H](CCCNC(=N)N)NC(=O)[C@H](Cc1ccc(O)cc1)NC(=O)[C@H](CCCCN)NC(=O)[C@@H](N)CCCCN)C(N)=O; organism = Leishmania amazonensis; test = intracellular amastigote growth, Giemsa staining; system = infected macrophages; conditions = 24 h; IC50 = 7.5 ± 0.15 µM
Compound = CC(C)[C@@H]1NC(=O)[C@H](CCCNC(=N)N)NC(=O)[C@H](Cc2ccccc2)NC(=O)[C@H](CO)NC(=O)[C@@H](NC(=O)CCCCCNC(=O)CCCCCNC(=O)[C@H](CCCNC(=N)N)NC(=O)CCCCCNC(=O)[C@H](CCCNC(=N)N)NC(=O)CCCCCNC(=O)[C@H](CCCNC(=N)N)NC(=O)CCCCCNC(=O)[C@H](CCCNC(=N)N)NC(=O)CCCCCNC(=O)[C@H](CCCNC(=N)N)NC(=O)CCCCCNC(=O)[C@H](CCCNC(=N)N)NC(=O)CCCCCNC(=O)[C@@H](N)CCCNC(=N)N)CSSC[C@@H](C(N)=O)NC(=O)[C@@H]2CCCN2C(=O)[C@H](Cc2ccc(O)cc2)NC(=O)[C@H](CCC(=O)O)NC(=O)[C@H](Cc2c[nH]cn2)NC(=O)[C@H](CC2CCCCC2)NC(=O)[C@H]2CCCN2C1=O; organism = hepatitis C virus; test = viral replication, Renilla luciferase reporter virus; system = Huh-7.5; conditions = 24 h post infection; IC50 = ~0.0005 µM
Compound = c1ccc(CN2CCNCCN(Cc3ccccc3)CCNCC2)cc1; organism = Leishmania donovani; test = parasite growth, resazurin; conditions = 72 h, amastigote; IC50 = > 25 µM

Some of these lines once more:
Compound = CC#N.[Cl][Mn-2]([Cl])([Cl])[Cl].[Mn+2].c1ccc(CN2CCCN3CCCN(CCCN(Cc4ccccc4)CC3)CC2)cc1; organism = Leishmania donovani; test = parasite growth, resazurin; conditions = 72 h, promastigote; IC50 = 3.48 µM
